Published values of several laboratories.
± marks the error that the study gave.
DRD2: D(2) dopamine receptor (DRD2, Homo sapiens, UniProt P14416)
Sequence of UniProt P14416 (whole entry, looked up): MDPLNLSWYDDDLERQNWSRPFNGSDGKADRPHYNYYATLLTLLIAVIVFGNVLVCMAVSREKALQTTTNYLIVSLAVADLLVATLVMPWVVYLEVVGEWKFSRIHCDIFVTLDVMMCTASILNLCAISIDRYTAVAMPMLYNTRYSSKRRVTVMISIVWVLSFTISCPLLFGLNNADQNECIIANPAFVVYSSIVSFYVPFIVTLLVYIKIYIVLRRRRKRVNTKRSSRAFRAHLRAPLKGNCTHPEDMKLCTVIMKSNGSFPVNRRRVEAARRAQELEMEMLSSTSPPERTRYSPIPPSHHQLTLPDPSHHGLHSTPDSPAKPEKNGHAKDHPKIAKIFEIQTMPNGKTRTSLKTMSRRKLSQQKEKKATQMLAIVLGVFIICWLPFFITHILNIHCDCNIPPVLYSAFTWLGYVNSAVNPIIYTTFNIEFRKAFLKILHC

Compound | target | assay | system | conditions | measurement | value
COc1cc2c(cc1OC)C(=O)N(CCCCN1CCN(c3ccccc3OC)CC1)C2 | DRD2 | radioligand binding |  | 10 µM, together with: [3H]N-methylspiperone | inhibition | 96.2%
CCS(=O)(=O)c1nc(S(=O)(=O)c2ccccc2Cl)c(N2CCN(C)C(=O)[C@H]2C)s1 | DRD2 |  |  | 10 µM | inhibition | 1.82%
CN(C(=O)n1cnc(-c2ccc[n+]([O-])c2)c1)C1CCCCC1 | DRD2 |  |  | 10 µM | inhibition | 1.85%
CCCC(CCC)c1nc2c(Nc3ccc(C#CCCCCCCCCN)cc3)nc3ccccc3c2[nH]1 | DRD2 | PDSP screening |  |  | off-target affinity | inactive
Ic1cccc2cnccc12 | DRD2 | binding, radioligand binding |  | 10 µM | inhibition | -2%
Cc1cc2c(N3CCN(CCCCOc4ccc5c(c4)NC(=O)CC5)CC3)cccc2n1C | DRD2 | Gi/o activation, agonist, cAMP GloSensor inhibition | human cells |  | log(τ/KA) | 7.75 ± 0.07
O=C(c1ccc(F)cc1)N(Cc1ccccc1)C1CCCCC1 | DRD2 |  |  | 10 µM | inhibition | -1%
Cc1cc2c(N3CCN(CCCCOc4ccc5c(c4)NC(=O)CC5)CC3)cccc2[nH]1 | DRD2 | Gi/o activation, agonist, cAMP GloSensor inhibition | human cells |  | log(τ/KA) | 9.25 ± 0.05
CC[C@]12CCCN3CCc4c([nH]c5ccccc45)[C@]31N(Cc1cn(Cc3ccccc3)nn1)C(=O)C2 | D(2) dopamine receptor, long isoform (DRD2, Homo sapiens, UniProt P14416) | beta-arrestin recruitment, antagonist, PathHunter chemiluminescence |  | 20 µM, together with: agonist at EC80 | inhibition | 15%
CCN(Cc1ccccc1C(F)(F)F)C(=O)C1CCN(S(=O)(=O)c2ccc3[nH]ncc3c2)CC1 | DRD2 | radioligand binding |  | 10 µM | inhibition | 6%
O=C(c1ccc(Cl)cc1)N(Cc1ccccc1)C1CCCCC1 | DRD2 |  |  | 10 µM | inhibition | 14.3%
O=C(NO)c1ccc(CN2CCCCc3ccccc32)c(F)c1 | DRD2 | radioligand binding, radioligand displacement |  | 10 µM | inhibition | -11.1%

Some of these lines once more:
Compound | target | assay | system | conditions | measurement | value
CCCC(CCC)c1nc2c(Nc3ccc(C#CCCCCCCCCN)cc3)nc3ccccc3c2[nH]1 | DRD2 | PDSP screening |  |  | off-target affinity | inactive
